Assay results gathered from unrelated publications.
Protocols differ between the studies behind these lines. “And” joins repeats or separate records; there may be more than shown. ± gives the spread as reported.
gag-pol integrase: Gag-Pol polyprotein, integrase (gag-pol, Human immunodeficiency virus type 1 group M subtype B, UniProt P04585)
SLC6A19: Sodium-dependent neutral amino acid transporter B(0)AT1 (SLC6A19, Homo sapiens, UniProt Q695T7)
Sequence of UniProt Q695T7 (whole entry, looked up): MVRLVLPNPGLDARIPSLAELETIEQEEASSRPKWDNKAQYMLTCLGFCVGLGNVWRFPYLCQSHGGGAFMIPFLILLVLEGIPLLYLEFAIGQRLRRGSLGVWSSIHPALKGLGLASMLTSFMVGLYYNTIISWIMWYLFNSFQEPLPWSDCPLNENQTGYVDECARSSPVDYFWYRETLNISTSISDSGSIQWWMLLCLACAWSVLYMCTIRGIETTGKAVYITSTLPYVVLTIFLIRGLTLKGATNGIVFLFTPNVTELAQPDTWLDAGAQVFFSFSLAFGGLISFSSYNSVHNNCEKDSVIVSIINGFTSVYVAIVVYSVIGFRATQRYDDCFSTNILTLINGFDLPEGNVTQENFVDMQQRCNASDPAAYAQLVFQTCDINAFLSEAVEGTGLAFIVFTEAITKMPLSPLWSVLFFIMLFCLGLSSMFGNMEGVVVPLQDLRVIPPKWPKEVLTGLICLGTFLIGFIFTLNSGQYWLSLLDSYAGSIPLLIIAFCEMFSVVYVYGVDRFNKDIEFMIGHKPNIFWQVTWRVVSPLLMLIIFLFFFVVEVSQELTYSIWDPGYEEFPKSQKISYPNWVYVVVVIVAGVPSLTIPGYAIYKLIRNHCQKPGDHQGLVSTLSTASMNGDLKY
FER: Tyrosine-protein kinase Fer (FER, Homo sapiens, UniProt P16591)
Sequence of UniProt Q92626 (whole entry, looked up): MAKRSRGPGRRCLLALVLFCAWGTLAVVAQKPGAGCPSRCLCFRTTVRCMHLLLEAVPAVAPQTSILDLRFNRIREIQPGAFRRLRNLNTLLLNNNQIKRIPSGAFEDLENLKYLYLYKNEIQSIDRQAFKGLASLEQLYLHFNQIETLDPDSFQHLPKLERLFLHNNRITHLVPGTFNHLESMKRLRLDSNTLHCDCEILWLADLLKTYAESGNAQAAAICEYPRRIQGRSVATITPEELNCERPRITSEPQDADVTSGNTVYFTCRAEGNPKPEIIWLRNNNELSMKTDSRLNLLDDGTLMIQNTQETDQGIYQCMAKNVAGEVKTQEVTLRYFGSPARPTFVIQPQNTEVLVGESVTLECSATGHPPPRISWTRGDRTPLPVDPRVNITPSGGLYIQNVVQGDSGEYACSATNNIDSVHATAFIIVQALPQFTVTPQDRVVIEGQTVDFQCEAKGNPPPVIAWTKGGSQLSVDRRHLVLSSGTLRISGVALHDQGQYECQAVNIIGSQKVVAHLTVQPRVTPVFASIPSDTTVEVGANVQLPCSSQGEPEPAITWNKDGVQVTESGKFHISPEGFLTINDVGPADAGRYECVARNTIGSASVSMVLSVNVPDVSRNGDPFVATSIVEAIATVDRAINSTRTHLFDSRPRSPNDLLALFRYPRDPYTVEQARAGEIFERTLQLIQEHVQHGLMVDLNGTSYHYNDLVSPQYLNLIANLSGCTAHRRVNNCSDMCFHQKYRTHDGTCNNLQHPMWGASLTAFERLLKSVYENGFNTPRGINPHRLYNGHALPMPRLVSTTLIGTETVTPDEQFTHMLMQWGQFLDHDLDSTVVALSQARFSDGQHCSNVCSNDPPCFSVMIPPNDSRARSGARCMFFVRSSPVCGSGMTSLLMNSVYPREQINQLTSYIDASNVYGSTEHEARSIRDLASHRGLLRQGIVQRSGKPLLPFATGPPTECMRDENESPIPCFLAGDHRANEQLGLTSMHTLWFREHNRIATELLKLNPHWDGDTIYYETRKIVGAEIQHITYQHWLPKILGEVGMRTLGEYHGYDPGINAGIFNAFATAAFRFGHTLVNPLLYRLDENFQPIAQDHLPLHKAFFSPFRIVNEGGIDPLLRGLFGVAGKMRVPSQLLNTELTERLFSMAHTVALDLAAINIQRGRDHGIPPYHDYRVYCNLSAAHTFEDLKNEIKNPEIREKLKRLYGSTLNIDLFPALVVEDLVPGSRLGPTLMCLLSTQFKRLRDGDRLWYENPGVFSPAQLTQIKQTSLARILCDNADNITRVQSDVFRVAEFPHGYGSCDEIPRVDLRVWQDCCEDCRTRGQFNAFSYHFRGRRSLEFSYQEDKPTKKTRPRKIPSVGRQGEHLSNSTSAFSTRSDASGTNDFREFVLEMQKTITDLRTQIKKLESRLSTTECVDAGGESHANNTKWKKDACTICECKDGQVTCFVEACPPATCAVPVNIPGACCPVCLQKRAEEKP
Sequence of UniProt P16591 (whole entry, looked up): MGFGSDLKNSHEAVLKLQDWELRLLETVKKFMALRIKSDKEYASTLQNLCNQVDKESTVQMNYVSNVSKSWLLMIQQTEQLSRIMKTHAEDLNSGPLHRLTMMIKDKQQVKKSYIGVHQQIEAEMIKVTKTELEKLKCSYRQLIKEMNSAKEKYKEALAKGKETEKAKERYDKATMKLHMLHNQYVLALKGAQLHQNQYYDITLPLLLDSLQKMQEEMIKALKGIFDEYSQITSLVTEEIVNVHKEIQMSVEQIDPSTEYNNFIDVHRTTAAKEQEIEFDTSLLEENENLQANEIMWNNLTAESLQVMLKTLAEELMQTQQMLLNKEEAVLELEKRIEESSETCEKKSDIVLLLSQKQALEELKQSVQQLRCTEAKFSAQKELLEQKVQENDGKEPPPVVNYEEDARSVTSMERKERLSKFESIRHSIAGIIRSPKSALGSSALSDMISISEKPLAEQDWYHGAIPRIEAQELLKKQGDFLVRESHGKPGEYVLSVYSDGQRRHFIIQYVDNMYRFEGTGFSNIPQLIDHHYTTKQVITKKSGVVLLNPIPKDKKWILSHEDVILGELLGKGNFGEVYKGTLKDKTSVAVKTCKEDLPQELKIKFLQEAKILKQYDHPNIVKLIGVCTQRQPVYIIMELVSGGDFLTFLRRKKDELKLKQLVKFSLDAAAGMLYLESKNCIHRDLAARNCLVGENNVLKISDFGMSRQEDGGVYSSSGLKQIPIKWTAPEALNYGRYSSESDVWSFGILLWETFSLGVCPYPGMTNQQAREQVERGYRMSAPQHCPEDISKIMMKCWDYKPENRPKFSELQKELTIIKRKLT
Sequence of UniProt O75582 (whole entry, looked up): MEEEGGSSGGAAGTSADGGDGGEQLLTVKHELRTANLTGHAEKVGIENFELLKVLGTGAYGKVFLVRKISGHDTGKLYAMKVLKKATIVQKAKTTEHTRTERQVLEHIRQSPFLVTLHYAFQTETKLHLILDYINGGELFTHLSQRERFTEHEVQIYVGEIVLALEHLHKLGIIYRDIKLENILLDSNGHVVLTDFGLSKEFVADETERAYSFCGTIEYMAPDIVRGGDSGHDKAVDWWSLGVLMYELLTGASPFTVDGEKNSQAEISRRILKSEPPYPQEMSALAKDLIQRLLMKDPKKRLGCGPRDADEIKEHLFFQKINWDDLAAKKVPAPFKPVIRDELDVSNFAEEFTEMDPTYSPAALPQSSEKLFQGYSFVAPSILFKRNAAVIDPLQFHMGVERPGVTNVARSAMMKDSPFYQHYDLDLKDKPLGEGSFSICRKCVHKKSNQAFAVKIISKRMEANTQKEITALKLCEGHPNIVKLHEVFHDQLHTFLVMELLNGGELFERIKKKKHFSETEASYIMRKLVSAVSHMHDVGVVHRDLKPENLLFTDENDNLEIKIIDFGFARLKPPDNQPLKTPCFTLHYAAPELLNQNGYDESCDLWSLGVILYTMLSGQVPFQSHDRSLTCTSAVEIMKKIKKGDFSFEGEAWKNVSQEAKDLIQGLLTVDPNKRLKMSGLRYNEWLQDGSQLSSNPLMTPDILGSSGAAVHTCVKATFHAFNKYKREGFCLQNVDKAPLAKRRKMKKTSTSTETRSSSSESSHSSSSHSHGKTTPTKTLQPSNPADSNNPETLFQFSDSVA
Sequence of UniProt Q9P0L2 (whole entry, looked up): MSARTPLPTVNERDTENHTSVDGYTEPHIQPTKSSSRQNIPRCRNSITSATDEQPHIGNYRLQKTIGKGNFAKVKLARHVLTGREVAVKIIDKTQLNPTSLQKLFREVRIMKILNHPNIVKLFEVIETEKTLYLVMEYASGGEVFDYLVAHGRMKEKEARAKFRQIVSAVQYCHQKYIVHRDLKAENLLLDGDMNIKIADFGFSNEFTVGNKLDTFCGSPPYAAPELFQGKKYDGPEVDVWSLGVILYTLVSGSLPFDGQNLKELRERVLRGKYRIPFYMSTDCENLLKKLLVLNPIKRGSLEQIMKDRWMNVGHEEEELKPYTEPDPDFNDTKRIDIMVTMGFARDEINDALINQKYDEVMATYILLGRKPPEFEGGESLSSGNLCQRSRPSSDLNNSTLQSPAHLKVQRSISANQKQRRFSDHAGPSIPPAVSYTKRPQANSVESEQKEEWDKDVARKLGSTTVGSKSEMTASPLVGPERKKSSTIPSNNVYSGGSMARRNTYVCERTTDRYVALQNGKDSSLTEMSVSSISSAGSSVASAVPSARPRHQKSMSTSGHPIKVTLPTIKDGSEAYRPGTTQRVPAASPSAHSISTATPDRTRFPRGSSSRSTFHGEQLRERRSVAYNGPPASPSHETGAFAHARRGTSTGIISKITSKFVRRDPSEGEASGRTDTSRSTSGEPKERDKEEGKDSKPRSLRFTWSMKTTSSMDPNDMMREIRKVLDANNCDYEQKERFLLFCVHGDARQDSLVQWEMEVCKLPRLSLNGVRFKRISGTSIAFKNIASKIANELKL
Sequence of UniProt P08631 (whole entry, looked up): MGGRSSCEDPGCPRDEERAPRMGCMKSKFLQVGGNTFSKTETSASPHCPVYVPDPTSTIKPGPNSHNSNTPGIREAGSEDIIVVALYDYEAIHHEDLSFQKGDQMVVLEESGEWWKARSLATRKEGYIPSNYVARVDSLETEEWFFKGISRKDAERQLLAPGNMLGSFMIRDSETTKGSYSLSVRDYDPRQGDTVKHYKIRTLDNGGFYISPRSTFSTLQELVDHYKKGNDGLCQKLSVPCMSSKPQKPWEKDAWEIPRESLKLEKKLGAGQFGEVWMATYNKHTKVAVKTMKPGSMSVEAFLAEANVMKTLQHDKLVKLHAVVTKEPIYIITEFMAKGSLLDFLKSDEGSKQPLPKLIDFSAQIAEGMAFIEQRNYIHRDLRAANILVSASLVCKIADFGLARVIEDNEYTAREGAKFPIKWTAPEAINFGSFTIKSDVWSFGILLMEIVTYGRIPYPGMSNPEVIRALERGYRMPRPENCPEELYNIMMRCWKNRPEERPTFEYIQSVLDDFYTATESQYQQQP

Compound | target | test | test system | conditions | how to read | remaining activity
Cc1ccc(-c2ccc3c(-c4ccccc4)cn(C)c3n2)cc1 | gag-pol integrase | strand transfer | HIV-1 | 10 µM | – | 48.3%
CC(C)C(=O)Nc1n[nH]c2cc(-c3cccc(NS(=O)(=O)C4CC4)c3)ccc12 | PIP5K1C (Homo sapiens, UniProt O60331) | ADP-Glo | – | 13.7 nM | baseline: DMSO | 102%
COc1ccc(F)cc1C(=O)NCc1ccc(-c2nn([C@@H](C)C(F)(F)F)c(N)c2C(N)=O)cc1 | HCK (Homo sapiens, UniProt P08631) | kinase activity, inhibitor, HotSpot radiometric | – | 100 nM, added: ATP 10 µM | – | 85 ± 1%
COc1cc(Nc2ncc3c(n2)-c2ccc(Cl)cc2C(c2c(F)cccc2OC)=NC3)ccc1C(=O)O | PHKG1 | kinase activity | – | 1 µM | – | 100%
COc1cc(N2CCN(C)CC2)ccc1Nc1nc(N)n(C(=S)NCc2c(Cl)cccc2Cl)n1 | Ribosomal protein S6 kinase alpha-5, C-terminal kinase domain (RPS6KA5, Homo sapiens, UniProt O75582) | enzyme activity | – | 10 µM | baseline: control | 25%
O=C(NC1CCC1)c1ccc2nc(-c3cccc(NS(=O)(=O)NCCN4CCCCC4)c3)cn2c1 | PRKD3 (Homo sapiens, UniProt O94806) | enzyme activity | – | 10 µM | – | 98%
COc1cc(F)ccc1-c1ncnc(Nc2cccc(C[S@](C)(=N)=O)c2)n1 | MARK1 (Homo sapiens, UniProt Q9P0L2) | kinase activity | – | 10 µM, added: 10 µM ATP | – | 93%
COc1ccc(Cn2cc(-c3ccsc3)c3ccc(-c4ccncc4)nc32)cc1 | gag-pol integrase | strand transfer | HIV-1 | 10 µM | – | 84.1%
Cc1cc(OCC(=O)NC(C)C)cc(C)c1Cl | SLC6A19 | FLIPR membrane potential | CHO-BC | 30 µM, unit not given | baseline: uninhibited | 0.829 and 0.643 and 0.57 and 0.651 and 0.779
Nc1ncnc2c1ncn2C1OC(CSCCNCc2cccc(-c3ccccc3)c2)C(O)C1O (stereo not shown) | N6-adenosine-methyltransferase catalytic subunit, with METTL14 (METTL3, Homo sapiens, UniProt Q86U44) | – | – | 10 µM | – | 54.7%
COc1cc(-c2cncc3c2CN(C)Cc2cc(N4CCNCC4)ccc2-3)cc(OC)c1OC | RPS6KA5 (Homo sapiens, UniProt O75582) | kinase activity | – | 1 µM, human enzyme, added: ATP 10 µM | baseline: DMSO control | 114%
Cn1cc(-c2ccccc2)c2ccc(Cl)nc21 | gag-pol integrase | strand transfer | HIV-1 | 10 µM | – | 85.6%
NC/C(=C\F)COc1cccc(Cn2c(=S)[nH]c(=O)c3[nH]cnc32)c1 | Peroxidasin homolog (PXDN, Homo sapiens, UniProt Q92626) | enzyme activity, inhibitor, Amplex UltraRed | – | 50 µM | baseline: control | 9.3% and 9.59%
Cc1cc(Nc2cc(N3CCN(C)CC3)nc(Sc3ccc(NC(=O)C4CC4)cc3)n2)[nH]n1 | FER | kinase activity, KinaseProfiler | – | 0.03 µM, species human | baseline: control | 100%
Cc1cc(Cl)cc(C)c1OCC(=O)NC(C)C | SLC6A19 | FLIPR membrane potential | CHO-BC | 30 µM, unit not given | baseline: uninhibited | 0.921 and 0.951 and 0.889 and 0.84 and 0.91
Cc1cccc(C)c1C(=O)OCC(=O)[C@H](CCCCN)NC(=O)[C@H](CCCNC(=N)N)NC(=O)OCc1ccccc1 | Procathepsin L (Mus musculus, UniProt P06797) | inhibitor | – | 10 µM, added: AMC fluorogenic substrate | baseline: untreated | 100%
O=C1NC(=O)/C(=C/c2ccc(-c3ccc(F)cc3O)o2)S1 | MAPK12 (Homo sapiens, UniProt P53778) | enzyme activity | – | 10 µM | – | 65%
C[C@@H](Oc1ccc(S(C)(=O)=O)cc1C(=O)N1C[C@@H]2C[C@]2(c2cc(C(F)(F)F)on2)C1)C(F)(F)F | SLC6A9 (Homo sapiens, UniProt P48067, G373S) | glycine uptake, inhibitor, [3H]glycine uptake | – | 0.005 µM, G319S mutant, log concentration 5, added: [3H]glycine | baseline: no inhibitor | 95.8%
COc1cc(N2CCN(C)CC2)ccc1Nc1nc(N)n(C(=O)NCc2ccccc2S(=O)(=O)C(C)C)n1 | HIPK4 (Homo sapiens, UniProt Q8NE63) | enzyme activity | – | 10 µM | baseline: control | 15%
Cn1cc(-c2ccccc2)c2ccc(-c3cc(C(F)(F)F)cc(C(F)(F)F)c3)nc21 | gag-pol integrase | strand transfer | HIV-1 | 10 µM | – | 63.6%
Cc1ccc(C[C@H](NC(=O)OC(C)(C)C)C(=O)NC/C=C/S(=O)(=O)c2ccccc2)cc1 | Cathepsin S (CTSS, Homo sapiens, UniProt P25774) | inhibitor | – | 5 µM, 60 min, added: Z-Phe-Arg-AMC | baseline: uninhibited control | < 1%
CNc1ncc2c(/C=C/C(=O)N3CCC(OC)CC3)nn(Cc3cccc(C(F)(F)F)c3)c2n1 | SRPK2 (Homo sapiens, UniProt P78362) | kinase activity, inhibitor | – | 1 µM | baseline: untreated control | 100%
COc1cc(/C=C/C(=O)CC(=O)/C=C/c2ccc(O)c(OC)c2)ccc1O | PINK1 | – | – | 1 µM | baseline: DMSO | 106%
C=CC(=O)N1CCC[C@@H](n2nc(-c3ccc(Oc4ccccc4)cc3)c3c(N)ncnc32)C1 | FER | – | – | 1 µM | – | 153%
COc1ccc(Cn2cc(-c3ccc4c(c3)OCO4)c3ccc(-c4ccc5ccccc5c4)nc32)cc1 | gag-pol integrase | strand transfer | HIV-1 | 10 µM | – | 75.9%
O=C(O)c1ccc(Nc2ncc3c(n2)-c2ccc(Cl)cc2C(c2c(F)cccc2F)=NC3)cc1 | MARK1(h) | kinase activity | – | 1 µM | – | 106%
Cn1cc(-c2ccc3c(c2)OCO3)c2ccc(-c3ccncc3)nc21 | gag-pol integrase | strand transfer | HIV-1 | 10 µM | – | 28.7%
C=CC(=O)N1CCC[C@@H](n2nc(-c3ccc(Oc4ccccc4)cc3)c3c(N)ncnc32)C1 | PEAK1 (Homo sapiens, UniProt Q9H792) | kinase activity, inhibitor, HotSpot radiometric | – | 100 nM, added: ATP 10 µM | – | 73.9 ± 0.3%

A few entries again:
Compound | target | test | test system | conditions | how to read | remaining activity
O=C(O)c1ccc(Nc2ncc3c(n2)-c2ccc(Cl)cc2C(c2c(F)cccc2F)=NC3)cc1 | MARK1(h) | kinase activity | – | 1 µM | – | 106%
Cn1cc(-c2ccc3c(c2)OCO3)c2ccc(-c3ccncc3)nc21 | gag-pol integrase | strand transfer | HIV-1 | 10 µM | – | 28.7%
C=CC(=O)N1CCC[C@@H](n2nc(-c3ccc(Oc4ccccc4)cc3)c3c(N)ncnc32)C1 | PEAK1 (Homo sapiens, UniProt Q9H792) | kinase activity, inhibitor, HotSpot radiometric | – | 100 nM, added: ATP 10 µM | – | 73.9 ± 0.3%
